Experimental data gathered from unrelated publications.
Several values in a cell are separate wells, animals, samples, runs or records. Numbers after ± are the reported error.

For N=C(N)NCCC[C@@H]1NC(=O)[C@H](CCCCNC(=O)CON=C[C@H](F)[C@@H](O)[C@H](O)[C@H](O)CO)NC(=O)[C@@H](Cc2ccc(O)cc2)NC(=O)[C@H](CC(=O)O)NC(=O)CNC1=O [fluorine-18 labelled], the tissue uptake was 1.11 ± 0.22 %ID/g (nude mice U-87 MG tumour, heart; intravenous, 0.5 h).
O=C([O-])c1cccc(CN(CCN(Cc2cn(Cc3ccccc3)nn2)Cc2cccc(C(=O)[O-])n2)Cc2cn(Cc3ccccc3)nn2)n1.[64Cu+2] has a tissue uptake of 16 %ID/g (healthy athymic nude mice, liver; intravenous, 1 h).
For CN1C(=O)[C@@H](Cc2ccc(O)c(I)c2)NC(=O)CNC(=O)[C@H](Cc2ccc3ccccc3c2)NC(=O)[C@H](CCCNC(=N)N)NC(=O)[C@H]1CCCNC(=O)c1ccc(CNC(=O)CN2CCN(CC(=O)O)CCN(CC(=O)O)CCN(CC(=O)O)CC2)cc1 [lutetium-177 labelled], the tissue uptake was 2.5 ± 0.7 %ID/g (measured: 177Lu radioactivity; female CB-17 SCID mice, Daudi xenograft, lung; intravenous, 0.16 nmol per mouse, 1 h).
The tissue uptake of CCCC[C@H](NC(=O)CNC(=O)CNC(=O)CN1CCN(CC(=O)O)CCN(CC(=O)O)CCN(CC(=O)O)CC1)C(=O)N[C@H]1CC(=O)NCCCC[C@@H](C(N)=O)NC(=O)[C@H](Cc2c[nH]c3ccccc23)NC(=O)[C@H](CCCNC(=N)N)NC(=O)[C@@H](Cc2ccccc2)NC(=O)[C@H](Cc2c[nH]cn2)NC1=O [gallium-67 labelled] is reported as 0.36 ± 0.08 %ID/g (female C57 mice, B16/F1 melanoma, lung; intravenous, 0.037 MBq, 4 h).
For CCCC[C@@H]1NC(=O)[C@@H](NC(=O)[C@H](CCC(=O)O)NC(=O)CNC(=O)CN2CCN(CC(=O)O)CCN(CC(=O)O)CCN(CC(=O)O)CC2)CCCCNC(=O)C[C@@H](C(N)=O)NC(=O)[C@H](C(C)C)NC(=O)[C@@H]2CCCN2C(=O)[C@H](CCCNC(=N)N)NC(=O)CNC(=O)[C@H](Cc2c[nH]c3ccccc23)NC(=O)[C@H](CCCNC(=N)N)NC(=O)[C@@H](Cc2ccccc2)NC(=O)[C@H](Cc2c[nH]cn2)NC(=O)[C@H](CCC(=O)O)NC1=O [gallium-67 labelled], the tissue uptake was 0.22 ± 0.07 %ID/g (C57 mice with B16/F1 melanoma, spleen; intravenous, 0.037 MBq, 24 h).
For O=C(NCC1OC2CCC=CCCC2O1)c1ccc([18F])nc1 (stereo not drawn), the tissue uptake was 1.36 ± 0.28 %ID/g (ex vivo biodistribution; BALB/c nude mice, female, LS174T xenograft, tumour; intravenous, 7.4 MBq, 60 min, pretargeting, added: CC49-tetrazine conjugate 24 h before).
For NC12CNCCNCC(NCc3ccc(CNC(=O)CCCC(=O)NCc4ccc(-c5nncnn5)cc4)cc3)(CNCCNC1)CNCCNC2.[64Cu+2], the tissue uptake was 5.6 %ID/g and 5.63 %ID/g (athymic nude mice SW1222 xenograft, tumor; 1 h post injection, 24 h accumulation interval, added: huA33-TCO pretargeting).
CCCC[C@H](NC(=O)CNC(=O)CNC(=O)CN1CCN(CC(=O)O)CCN(CC(=O)O)CC1)C(=O)N[C@H]1CC(=O)NCCCC[C@@H](C(N)=O)NC(=O)[C@H](Cc2c[nH]c3ccccc23)NC(=O)[C@H](CCCNC(=N)N)NC(=O)[C@@H](Cc2ccccc2)NC(=O)[C@H](Cc2c[nH]cn2)NC1=O [gallium-67 labelled] has a tissue uptake of 1.02 ± 0.06 %ID/g (female C57 mice, B16/F1 melanoma, blood; intravenous, 0.037 MBq, 4 h).
CCCC[C@H](NC(=O)CN1CCC(NC(=O)CN2CCN(CC(=O)O)CCN(CC(=O)O)CCN(CC(=O)O)CC2)CC1)C(=O)N[C@H]1CC(=O)NCCCC[C@@H](C(N)=O)NC(=O)[C@H](Cc2c[nH]c3ccccc23)NC(=O)[C@H](CCCNC(=N)N)NC(=O)[C@@H](Cc2ccccc2)NC(=O)[C@H](Cc2c[nH]cn2)NC1=O [gallium-68 labelled] gave a tissue uptake of 0.5 ± 0.4 %ID/g (male C57BL/6J mice, B16-F10 tumours, fat; intravenous, 1 h, blocking study, added: 100 µg non-radioactive Ga-peptide).

Excerpt of the above:
For O=C(NCC1OC2CCC=CCCC2O1)c1ccc([18F])nc1 (stereo not drawn), the tissue uptake was 1.36 ± 0.28 %ID/g (ex vivo biodistribution; BALB/c nude mice, female, LS174T xenograft, tumour; intravenous, 7.4 MBq, 60 min, pretargeting, added: CC49-tetrazine conjugate 24 h before).
